Assay results pooled from the literature.
Lines come from different studies, so protocols differ. ± marks the error that the study gave.
CHRM1: Muscarinic acetylcholine receptor M1 (CHRM1, Homo sapiens, UniProt P11229)
Sequence of UniProt P11229 (whole entry, looked up): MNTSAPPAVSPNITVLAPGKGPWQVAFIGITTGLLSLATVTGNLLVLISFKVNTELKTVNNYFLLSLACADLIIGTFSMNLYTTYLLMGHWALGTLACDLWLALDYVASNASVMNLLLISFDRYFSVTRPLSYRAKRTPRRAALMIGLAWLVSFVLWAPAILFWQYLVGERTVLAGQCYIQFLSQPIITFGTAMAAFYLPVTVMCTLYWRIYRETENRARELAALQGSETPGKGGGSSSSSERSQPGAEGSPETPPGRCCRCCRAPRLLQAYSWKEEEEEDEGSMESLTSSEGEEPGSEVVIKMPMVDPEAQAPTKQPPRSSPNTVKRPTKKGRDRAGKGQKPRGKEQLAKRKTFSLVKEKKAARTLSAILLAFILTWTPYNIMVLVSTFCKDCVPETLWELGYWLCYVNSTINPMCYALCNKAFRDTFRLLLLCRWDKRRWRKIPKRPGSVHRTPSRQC
CHRM4: Muscarinic acetylcholine receptor M4 (CHRM4, Homo sapiens, UniProt P08173)
Sequence of UniProt P08173 (whole entry, looked up): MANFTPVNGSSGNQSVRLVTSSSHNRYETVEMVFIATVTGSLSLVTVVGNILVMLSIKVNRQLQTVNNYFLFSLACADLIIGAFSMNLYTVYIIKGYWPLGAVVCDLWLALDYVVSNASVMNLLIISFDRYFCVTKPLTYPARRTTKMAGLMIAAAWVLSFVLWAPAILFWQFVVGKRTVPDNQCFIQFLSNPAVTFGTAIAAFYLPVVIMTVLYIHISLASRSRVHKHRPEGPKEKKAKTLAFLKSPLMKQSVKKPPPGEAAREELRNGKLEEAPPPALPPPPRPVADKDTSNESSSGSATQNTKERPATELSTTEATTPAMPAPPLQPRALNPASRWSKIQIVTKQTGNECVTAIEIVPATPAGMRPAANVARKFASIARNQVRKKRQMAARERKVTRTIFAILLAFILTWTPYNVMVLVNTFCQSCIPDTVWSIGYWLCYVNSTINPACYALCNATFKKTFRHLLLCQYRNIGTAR
SCN10A: Sodium channel protein type 10 subunit alpha (SCN10A, Homo sapiens, UniProt Q9Y5Y9)
Sequence of UniProt Q9Y5Y9 (whole entry, looked up): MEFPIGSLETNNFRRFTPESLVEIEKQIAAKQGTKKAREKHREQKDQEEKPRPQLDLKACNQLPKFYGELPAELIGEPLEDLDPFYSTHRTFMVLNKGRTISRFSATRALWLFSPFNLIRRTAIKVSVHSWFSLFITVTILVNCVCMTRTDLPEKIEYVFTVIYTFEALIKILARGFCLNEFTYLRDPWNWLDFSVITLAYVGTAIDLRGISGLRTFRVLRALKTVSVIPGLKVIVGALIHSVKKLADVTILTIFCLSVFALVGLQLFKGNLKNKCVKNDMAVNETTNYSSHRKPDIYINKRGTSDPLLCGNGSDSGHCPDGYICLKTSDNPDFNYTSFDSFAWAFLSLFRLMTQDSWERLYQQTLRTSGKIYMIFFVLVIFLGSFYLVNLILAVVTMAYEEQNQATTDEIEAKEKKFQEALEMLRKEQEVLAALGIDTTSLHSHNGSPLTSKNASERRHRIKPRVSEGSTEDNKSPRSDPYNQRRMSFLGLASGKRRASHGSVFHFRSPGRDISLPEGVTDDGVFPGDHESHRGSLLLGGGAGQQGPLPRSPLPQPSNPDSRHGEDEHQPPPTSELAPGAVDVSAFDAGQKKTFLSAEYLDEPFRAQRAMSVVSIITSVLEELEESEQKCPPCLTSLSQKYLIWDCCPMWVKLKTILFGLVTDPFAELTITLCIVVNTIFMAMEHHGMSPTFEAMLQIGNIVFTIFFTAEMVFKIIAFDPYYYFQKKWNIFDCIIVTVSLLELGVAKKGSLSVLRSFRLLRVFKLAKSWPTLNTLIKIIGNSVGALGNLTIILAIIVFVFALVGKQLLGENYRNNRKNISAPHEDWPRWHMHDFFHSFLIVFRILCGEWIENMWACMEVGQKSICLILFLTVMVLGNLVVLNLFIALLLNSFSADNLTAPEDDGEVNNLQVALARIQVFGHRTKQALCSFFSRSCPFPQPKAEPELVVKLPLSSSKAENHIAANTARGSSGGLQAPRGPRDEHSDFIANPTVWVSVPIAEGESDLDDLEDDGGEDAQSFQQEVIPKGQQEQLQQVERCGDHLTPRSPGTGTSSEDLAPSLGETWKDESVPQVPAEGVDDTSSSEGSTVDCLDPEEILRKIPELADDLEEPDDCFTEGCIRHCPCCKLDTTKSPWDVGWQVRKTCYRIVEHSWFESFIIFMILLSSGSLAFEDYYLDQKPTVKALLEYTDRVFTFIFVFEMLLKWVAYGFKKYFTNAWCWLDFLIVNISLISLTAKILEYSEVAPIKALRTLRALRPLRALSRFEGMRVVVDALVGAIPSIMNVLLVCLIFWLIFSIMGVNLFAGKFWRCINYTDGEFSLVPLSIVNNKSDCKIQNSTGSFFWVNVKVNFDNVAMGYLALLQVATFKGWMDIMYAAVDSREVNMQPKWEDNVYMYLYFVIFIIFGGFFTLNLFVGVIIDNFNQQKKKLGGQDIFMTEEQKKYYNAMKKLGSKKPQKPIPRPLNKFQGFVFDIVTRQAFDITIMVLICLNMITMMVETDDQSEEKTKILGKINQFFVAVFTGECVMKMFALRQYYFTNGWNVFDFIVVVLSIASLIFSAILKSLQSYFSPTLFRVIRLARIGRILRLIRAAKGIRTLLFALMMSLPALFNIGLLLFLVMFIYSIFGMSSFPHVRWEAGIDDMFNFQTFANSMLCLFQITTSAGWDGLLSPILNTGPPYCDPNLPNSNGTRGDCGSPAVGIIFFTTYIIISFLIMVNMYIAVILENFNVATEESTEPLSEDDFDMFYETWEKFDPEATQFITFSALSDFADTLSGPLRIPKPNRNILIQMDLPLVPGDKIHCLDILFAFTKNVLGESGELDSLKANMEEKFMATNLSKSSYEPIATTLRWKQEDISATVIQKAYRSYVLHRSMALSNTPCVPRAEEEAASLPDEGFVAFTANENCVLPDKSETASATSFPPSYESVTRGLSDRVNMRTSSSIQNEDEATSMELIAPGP
T1: c-di-GMP riboswitch (Clostridium acetobutylicum); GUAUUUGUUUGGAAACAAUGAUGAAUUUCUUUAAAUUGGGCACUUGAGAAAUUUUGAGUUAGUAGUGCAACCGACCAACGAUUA
T2: DNA hairpin, CGG duplex, TTTT loop; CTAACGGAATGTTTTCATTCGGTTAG
Sequence of UniProt P19111 (whole entry, looked up): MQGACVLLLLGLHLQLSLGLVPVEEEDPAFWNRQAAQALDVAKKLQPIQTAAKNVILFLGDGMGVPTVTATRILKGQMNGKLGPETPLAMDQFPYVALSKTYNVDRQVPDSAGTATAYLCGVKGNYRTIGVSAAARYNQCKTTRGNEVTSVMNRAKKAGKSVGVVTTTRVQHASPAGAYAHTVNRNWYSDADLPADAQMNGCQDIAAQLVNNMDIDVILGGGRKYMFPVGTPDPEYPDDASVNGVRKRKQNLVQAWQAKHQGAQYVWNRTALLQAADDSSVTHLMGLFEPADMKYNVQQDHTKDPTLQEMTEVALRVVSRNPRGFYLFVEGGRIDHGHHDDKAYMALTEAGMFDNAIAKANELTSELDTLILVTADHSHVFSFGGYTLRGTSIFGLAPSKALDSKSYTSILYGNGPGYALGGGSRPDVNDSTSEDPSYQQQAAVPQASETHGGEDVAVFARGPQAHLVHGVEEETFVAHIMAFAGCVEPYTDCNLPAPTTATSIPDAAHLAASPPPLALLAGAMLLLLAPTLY
Sequence of UniProt P12369 (whole entry, unmodified, looked up): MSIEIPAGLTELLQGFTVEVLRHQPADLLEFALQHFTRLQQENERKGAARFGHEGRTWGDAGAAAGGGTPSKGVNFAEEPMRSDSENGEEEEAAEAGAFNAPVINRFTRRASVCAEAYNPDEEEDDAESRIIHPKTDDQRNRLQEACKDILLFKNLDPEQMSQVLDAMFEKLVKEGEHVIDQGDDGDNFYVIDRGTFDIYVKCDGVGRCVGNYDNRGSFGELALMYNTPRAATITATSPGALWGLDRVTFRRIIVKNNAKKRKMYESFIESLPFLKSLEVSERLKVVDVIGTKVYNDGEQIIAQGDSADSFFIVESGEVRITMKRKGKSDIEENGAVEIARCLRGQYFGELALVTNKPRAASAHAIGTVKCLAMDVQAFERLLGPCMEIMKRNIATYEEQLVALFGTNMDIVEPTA
Sequence of UniProt Q21974 (whole entry, unmodified, looked up): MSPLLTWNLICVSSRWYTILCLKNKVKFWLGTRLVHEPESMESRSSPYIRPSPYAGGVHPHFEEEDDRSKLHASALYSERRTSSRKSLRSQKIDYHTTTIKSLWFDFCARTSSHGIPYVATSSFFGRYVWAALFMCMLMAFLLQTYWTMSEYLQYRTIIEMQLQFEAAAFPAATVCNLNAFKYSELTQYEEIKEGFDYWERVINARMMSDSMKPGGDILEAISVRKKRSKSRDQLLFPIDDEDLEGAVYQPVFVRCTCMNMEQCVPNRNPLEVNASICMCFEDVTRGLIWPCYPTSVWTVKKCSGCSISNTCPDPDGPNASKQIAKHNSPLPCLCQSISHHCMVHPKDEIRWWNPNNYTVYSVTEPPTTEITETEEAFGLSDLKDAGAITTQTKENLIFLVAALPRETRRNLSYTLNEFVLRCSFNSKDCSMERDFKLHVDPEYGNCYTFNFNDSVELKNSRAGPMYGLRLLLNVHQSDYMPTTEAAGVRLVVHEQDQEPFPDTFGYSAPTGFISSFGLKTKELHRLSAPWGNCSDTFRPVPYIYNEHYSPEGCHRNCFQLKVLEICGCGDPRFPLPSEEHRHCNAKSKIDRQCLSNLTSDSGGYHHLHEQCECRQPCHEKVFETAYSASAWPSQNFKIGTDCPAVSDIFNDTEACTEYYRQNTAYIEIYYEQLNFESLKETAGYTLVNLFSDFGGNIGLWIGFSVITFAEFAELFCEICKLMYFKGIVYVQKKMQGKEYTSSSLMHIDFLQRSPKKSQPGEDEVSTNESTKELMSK
Sequence of UniProt P08246 (whole entry, looked up): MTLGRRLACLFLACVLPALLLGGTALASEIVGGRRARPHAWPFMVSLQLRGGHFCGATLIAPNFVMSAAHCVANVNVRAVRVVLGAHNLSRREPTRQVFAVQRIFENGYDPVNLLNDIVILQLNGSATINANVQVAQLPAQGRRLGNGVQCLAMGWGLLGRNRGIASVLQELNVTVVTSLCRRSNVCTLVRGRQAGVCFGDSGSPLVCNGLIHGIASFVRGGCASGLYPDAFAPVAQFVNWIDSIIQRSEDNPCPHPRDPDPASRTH

Molecule	target	test	test system	setting	how to read	quantity	value
Oc1cc2c(cc1O)[C@@H]1c3ccc(O)c(O)c3OC[C@]1(O)C2	Lysine-specific demethylase 4E (KDM4E, Homo sapiens, UniProt B2RXH2)	inhibitor, FDH-coupled	–	–	reference: 20 µM over 2.5 µM ferrous ammonium sulfate	IC50 ratio	8.9
Nc1nc2c(ccn2[C@@H]2O[C@@H]3COP(=O)(O)O[C@H]4[C@@H](O)[C@H](n5ccc6c(=O)[nH]c(N)nc65)O[C@@H]4COP(=O)(O)O[C@H]3[C@H]2O)c(=O)[nH]1	T1, c-di-GMP riboswitch (Clostridium acetobutylicum)	competitor, competition gel-shift	–	4-24 h, pH 6.8, 22 °C, with: radiolabelled c-di-GMP	–	Kd	3500 nM
Brc1ccc2[nH]ccc2c1	Dehaloperoxidase B, ferric (Amphitrite ornata, UniProt Q9NAV7)	substrate, HPLC	–	500 µM, 5 min, pH 7, 25 °C, 5% methanol, with: H2O2	–	conversion	48.1%
O=c1cc(-c2ccccc2OCc2ccc(-c3ncco3)cc2)ncn1C1CCCCC1O (stereo not shown)	CHRM1	allosteric agonist, IP1 accumulation	CHO-M1 cells	10 µM, unit not given	reference: maximum ACh response	change in baseline activity	58.8 ± 3.8
AAPVRGMG	Neutrophil elastase (ELANE, Homo sapiens, UniProt P08246)	substrate	peptide, PEG hydrogel	with: elastase 1 µM	–	complete release time	~1 h
CIKVAVS	human polyclonal IgM rheumatoid factor	binding to mAb II-481	peptide	combined CDR peptides, serum ABR	–	maximum inhibition	0%
COc1ccc(C)c2sc(NS(=O)(=O)c3cnn(C)c3)nc12	CHRM4	calcium mobilization, positive allosteric modulator	CHO expressing hM4 and Gqi5	concentration not given, with: acetylcholine EC20	–	activity	inactive
O=c1cc(-c2ccccc2OCc2ccc(Cl)nc2)ncn1C1CCCCC1O (stereo not shown)	CHRM1	allosteric agonist, IP1 accumulation	CHO-M1 cells	10 µM, unit not given	reference: maximum ACh response	change in baseline activity	41.1 ± 2.4
O=C(O)c1ccccc1-c1ccc(Cn2c3ccccc3c3ccccc32)cc1	Peroxisome proliferator-activated receptor gamma (PPARG, Homo sapiens, UniProt P37231)	–	COS-7	10 µM, 39 h	–	Emax	25.6%
WFRMSIRGGYKKKK	Serine/threonine-protein kinase PLK1 (PLK1, Homo sapiens, UniProt P53350, T210D)	substrate	peptide	Km of kinase, 1 h, 30 °C	reference: optimal peptide	phosphorylation	< 1%
N[C@@H](CCC(=O)O)C(=O)O	Protein tweety homolog 3 (Ttyh3, Mus musculus, UniProt Q6P5F7)	permeant anion, whole-cell patch clamp	HEK-293T co-expressing AQP4	70 mM, hypo-osmotic solution	reference: compound over chloride	permeability ratio	~0.26
CCn1cc(-c2ccc(COc3ccccc3-c3cc(=O)n(C4CCCCC4O)cn3)cc2)cn1 (stereo not shown)	CHRM1	positive allosteric modulator, IP1 accumulation	CHO-M1 cells	1 µM, 60 min, 37 °C, with: ACh	reference: ACh alone, higher = stronger potentiation	ΔpEC50 of ACh	1.81 ± 0.13 log units
O=P(O)(O)O	ldh (Lactococcus cremoris, UniProt A2RKA4)	pyruvate reduction, allosteric inhibitor	–	30000 µM, pH 7.0, 30 °C, with: FBP 1 mM	–	remaining activity	78 ± 0.8%
CCNC(=O)c1ccc(COc2ccccc2-c2cc(=O)n(C3CCCCC3O)cn2)cc1 (stereo not shown)	CHRM1	allosteric agonist, IP1 accumulation	CHO-M1 cells	1 µM, unit not given	reference: maximum ACh response	change in baseline activity	87.1 ± 2.8
C=CC(=O)N1CCC(Cc2cccc(C(=O)N3CCN(c4nc(-c5cnc(N)nc5C(F)F)nc(N5CCOCC5)n4)CC3)c2)CC1	Phosphatidylinositol 4,5-bisphosphate 3-kinase catalytic subunit alpha isoform (PIK3CA, Homo sapiens, UniProt P42336)	covalent inhibitor	–	–	–	kinact/KI	< 100000 M⁻¹ s⁻¹
N=C(N)c1ccccc1	unc-8 (Caenorhabditis elegans, UniProt Q21974, G387E)	ion current, two-electrode voltage clamp	Xenopus oocytes coexpressing MEC-2	30 µM, -85 mV	reference: uninjected oocytes, positive = inhibition	current change	0.32 µA
CCN(CC)C(=O)c1ccc(COc2ccccc2-c2cc(=O)n(C3CCCCC3O)cn2)cc1 (stereo not shown)	CHRM1	allosteric agonist, IP1 accumulation	CHO-M1 cells	1 µM, unit not given	reference: maximum ACh response	change in baseline activity	9.2 ± 3

Molecule	target	test	test system	setting	how to read	quantity	value
COc1ccccc1CN(CCO)C(=O)c1cc(C)c(C)s1	ATP2A2 (Sus scrofa, UniProt P11607)	enzyme activity, NADH-coupled	porcine cardiac SR vesicles	up to 50 µM	–	Ca2+-ATPase activity	inactive
O=c1c(O)cc([C@H]2Oc3cc(O)cc(O)c3C[C@H]2O)cc2c([C@H]3Oc4cc(O)cc(O)c4C[C@H]3O)cc(O)c(O)c12	Protein immune deficiency (imd, Drosophila melanogaster, UniProt Q7K4Z4)	inhibitor, SDD-AGE densitometry	–	100 µM, 30 min, room temperature	–	reduction of aggregates	60.9%
NS(=O)(=O)c1ccc(COc2ccccc2-c2cc(=O)n(C3CCCCC3O)cn2)cc1 (stereo not shown)	CHRM1	allosteric agonist, IP1 accumulation	CHO-M1 cells	1 µM, unit not given	reference: maximum ACh response	change in baseline activity	23.4 ± 2.3
CC1(C)c2cc(CC(=O)c3ccc(O)cc3O)c(O)cc2OC1CO (stereo not shown)	quinone reductase	inducer	Hepa1c1c7	–	–	concentration doubling activity	19.6 µM
CCCC(=O)Nc1ncnc2c1ncn2[C@@H]1O[C@@H]2COP(=O)(O)O[C@H]2[C@H]1O	cAMP-dependent protein kinase type II-beta regulatory subunit, holoenzyme with catalytic subunit (Prkar2b, Rattus norvegicus, UniProt P12369, S112A)	PKA holoenzyme activation, activator, fluorescence anisotropy	–	–	reference: RIIβ over RIα, higher = RIIβ-selective	selectivity ratio	3.6
C[C@H](CCCOc1cccc(CO)c1)[C@H]1CC[C@H]2[C@@H]3CC=C4C[C@@H](O)CC[C@]4(C)[C@H]3CC[C@]12C	G-protein coupled bile acid receptor 1 (GPBAR1, Homo sapiens, UniProt Q8TDU6)	CRE reporter gene, agonist, luciferase reporter	HEK293T transfected	10 µM	reference: TLCA	Emax	~129%
[Na+].[Na+].[Na+].[O]=[V]([O-])([O-])[O-]	Intestinal-type alkaline phosphatase (ALPI, Bos taurus, UniProt P19111)	–	–	6.68 µM, with: DiFMUP substrate	–	Km	1.3 ± 0.3 µM
CC[C@H](C)[C@H](NC(=O)[C@H](Cc1ccc(O)cc1)NC(=O)[C@H](CCCNC(=N)N)NC(=O)[C@H](CCCNC(=N)N)NC(=O)[C@H](CC(C)C)NC(=O)[C@H](CC(=O)O)NC(=O)[C@H](C)NC(=O)[C@H](C)NC(=O)[C@H](Cc1ccc(O)cc1)NC(=O)[C@H](CCC(N)=O)NC(=O)[C@H](C)NC(=O)[C@H](CCSC)NC(=O)[C@H](CCC(N)=O)NC(=O)[C@H](CCC(=O)O)NC(=O)[C@@H]1CCCN1C(=O)[C@@H](NC(=O)[C@H](C)NC(=O)[C@H](CC(N)=O)NC(=O)[C@H](CC(=O)O)NC(=O)CNC(=O)[C@@H]1CCCN1C(=O)[C@H](Cc1ccc(O)cc1)NC(=O)[C@@H](NC(=O)[C@@H]1CCCN1C(=O)[C@H](CCC(=O)O)NC(=O)[C@H](CC(C)C)NC(=O)[C@@H]1CCCN1C(=O)[C@H](C)NC(=O)c1ccc2c(c1)C(=O)OC21c2ccc(O)cc2Oc2cc(O)ccc21)C(C)C)[C@@H](C)O)C(=O)N[C@@H](CC(N)=O)C(=O)N[C@@H](CCSC)C(=O)N[C@@H](CC(C)C)C(=O)N[C@H](C(=O)N[C@@H](CCCNC(=N)N)C(=O)N1CCC[C@H]1C(=O)N[C@@H](CCCNC(=N)N)C(=O)N[C@@H](Cc1ccc(O)cc1)C(N)=O)[C@@H](C)O	Neuropeptide Y receptor type 4 (NPY4R, Homo sapiens, UniProt P50391)	radioligand displacement	COS-7 transiently expressing	1 µM, 90 min, room temperature, with: [3H]-hPP 1 nM	reference: total binding	specific binding	90%
C[C@@H](O)[C@H](NC(=O)[C@H](CS)NC(=O)[C@@H](N)CO)C(=O)O	Glyceraldehyde-3-phosphate dehydrogenase (GAPDH, Homo sapiens, UniProt P04406)	enzyme activity, spectrophotometric	–	10 µM	reference: vehicle	remaining activity	100 ± 1.19%
Cn1ncc2ccc(COc3ccccc3-c3cc(=O)n(C4CCCCC4O)cn3)cc21 (stereo not shown)	CHRM1	allosteric agonist, IP1 accumulation	CHO-M1 cells	1 µM, unit not given	reference: maximum ACh response	change in baseline activity	46.3 ± 1.8
Cc1ccc2ccc(NC(=O)CCNCCC(=O)Nc3ccc4ccc(C)nc4n3)nc2n1	T2, DNA hairpin, CGG duplex, TTTT loop	SPR	–	apparent, kinetic fit	–	Kd	350 nM
CCN(CCO)C(C)C(=O)Nc1c(C)csc1C(=O)OC (stereo not shown)	SCN10A	cell membrane chromatography	–	–	higher = stronger binding	capacity factor k′	3
CCCCc1nc2c([nH]1)c(=O)n(C)c(=O)n2C	Progesterone receptor (PGR, Homo sapiens, UniProt P06401)	reporter gene, antagonist, MMTV-luciferase	T47D/A1-2	10 µM, 24 h, with: 5 nM progesterone	reference: maximal activity	remaining activity	155%
COC(=O)c1scc(C)c1NC(=O)C(C)N1CCNCC1 (stereo not shown)	SCN10A	cell membrane chromatography	–	–	higher = stronger binding	capacity factor k′	32
C=CC(=O)NCCCC[C@H](NC(=O)OCc1ccccc1)C(=O)N1CCN(c2ccccc2Cl)CC1	Protein-glutamine gamma-glutamyltransferase (TGM2, Homo sapiens, UniProt P21980)	–	–	pH 6.5	–	kinact	0.0162 s⁻¹
COC(=O)c1scc(C)c1NC(=O)C(C)N1CCN(CCO)CC1 (stereo not shown)	SCN10A	cell membrane chromatography	–	–	higher = stronger binding	capacity factor k′	41
COc1ccc(C)c2sc(NC(=O)CC3CC3)nc12	CHRM4	calcium mobilization, positive allosteric modulator	CHO expressing hM4 and Gqi5	concentration not given, with: acetylcholine EC20	–	activity	inactive

Excerpt of the above:
Molecule	target	test	test system	setting	how to read	quantity	value
CCCC(=O)Nc1ncnc2c1ncn2[C@@H]1O[C@@H]2COP(=O)(O)O[C@H]2[C@H]1O	cAMP-dependent protein kinase type II-beta regulatory subunit, holoenzyme with catalytic subunit (Prkar2b, Rattus norvegicus, UniProt P12369, S112A)	PKA holoenzyme activation, activator, fluorescence anisotropy	–	–	reference: RIIβ over RIα, higher = RIIβ-selective	selectivity ratio	3.6
C[C@H](CCCOc1cccc(CO)c1)[C@H]1CC[C@H]2[C@@H]3CC=C4C[C@@H](O)CC[C@]4(C)[C@H]3CC[C@]12C	G-protein coupled bile acid receptor 1 (GPBAR1, Homo sapiens, UniProt Q8TDU6)	CRE reporter gene, agonist, luciferase reporter	HEK293T transfected	10 µM	reference: TLCA	Emax	~129%
